# Assay results gathered from unrelated publications.
# Numbered parts are unrelated; each lists some results of a single study. Several values in a cell are separate wells, animals, samples, runs or records.
# Sequence of UniProt P37023 (whole entry, looked up): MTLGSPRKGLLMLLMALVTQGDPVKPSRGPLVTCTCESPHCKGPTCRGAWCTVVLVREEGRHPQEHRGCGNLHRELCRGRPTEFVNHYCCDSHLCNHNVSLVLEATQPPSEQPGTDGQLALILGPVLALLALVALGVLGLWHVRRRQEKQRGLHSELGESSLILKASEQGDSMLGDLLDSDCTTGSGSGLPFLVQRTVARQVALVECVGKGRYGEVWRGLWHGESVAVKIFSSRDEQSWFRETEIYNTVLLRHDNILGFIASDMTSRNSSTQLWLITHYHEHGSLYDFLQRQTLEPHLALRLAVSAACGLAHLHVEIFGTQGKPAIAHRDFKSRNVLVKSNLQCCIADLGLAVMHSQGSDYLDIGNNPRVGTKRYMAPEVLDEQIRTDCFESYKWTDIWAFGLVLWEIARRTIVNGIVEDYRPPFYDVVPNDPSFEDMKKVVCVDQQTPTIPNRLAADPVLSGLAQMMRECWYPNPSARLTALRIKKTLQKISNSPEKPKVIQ
# Sequence of UniProt Q15835 (whole entry, looked up): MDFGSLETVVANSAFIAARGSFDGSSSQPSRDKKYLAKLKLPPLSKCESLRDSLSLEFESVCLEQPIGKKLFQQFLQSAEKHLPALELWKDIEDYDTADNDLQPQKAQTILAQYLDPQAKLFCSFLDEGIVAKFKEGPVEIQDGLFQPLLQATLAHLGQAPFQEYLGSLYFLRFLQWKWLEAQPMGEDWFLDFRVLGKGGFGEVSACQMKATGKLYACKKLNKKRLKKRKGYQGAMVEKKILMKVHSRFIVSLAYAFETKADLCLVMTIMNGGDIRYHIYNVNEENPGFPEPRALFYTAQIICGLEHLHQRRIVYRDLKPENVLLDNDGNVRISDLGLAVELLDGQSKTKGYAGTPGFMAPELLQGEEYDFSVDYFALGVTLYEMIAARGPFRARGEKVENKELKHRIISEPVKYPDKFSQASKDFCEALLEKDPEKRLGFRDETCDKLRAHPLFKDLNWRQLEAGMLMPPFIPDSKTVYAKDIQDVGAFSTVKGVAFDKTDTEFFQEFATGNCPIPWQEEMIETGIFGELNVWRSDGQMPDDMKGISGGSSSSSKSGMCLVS
# Sequence of UniProt Q02763 (whole entry, looked up): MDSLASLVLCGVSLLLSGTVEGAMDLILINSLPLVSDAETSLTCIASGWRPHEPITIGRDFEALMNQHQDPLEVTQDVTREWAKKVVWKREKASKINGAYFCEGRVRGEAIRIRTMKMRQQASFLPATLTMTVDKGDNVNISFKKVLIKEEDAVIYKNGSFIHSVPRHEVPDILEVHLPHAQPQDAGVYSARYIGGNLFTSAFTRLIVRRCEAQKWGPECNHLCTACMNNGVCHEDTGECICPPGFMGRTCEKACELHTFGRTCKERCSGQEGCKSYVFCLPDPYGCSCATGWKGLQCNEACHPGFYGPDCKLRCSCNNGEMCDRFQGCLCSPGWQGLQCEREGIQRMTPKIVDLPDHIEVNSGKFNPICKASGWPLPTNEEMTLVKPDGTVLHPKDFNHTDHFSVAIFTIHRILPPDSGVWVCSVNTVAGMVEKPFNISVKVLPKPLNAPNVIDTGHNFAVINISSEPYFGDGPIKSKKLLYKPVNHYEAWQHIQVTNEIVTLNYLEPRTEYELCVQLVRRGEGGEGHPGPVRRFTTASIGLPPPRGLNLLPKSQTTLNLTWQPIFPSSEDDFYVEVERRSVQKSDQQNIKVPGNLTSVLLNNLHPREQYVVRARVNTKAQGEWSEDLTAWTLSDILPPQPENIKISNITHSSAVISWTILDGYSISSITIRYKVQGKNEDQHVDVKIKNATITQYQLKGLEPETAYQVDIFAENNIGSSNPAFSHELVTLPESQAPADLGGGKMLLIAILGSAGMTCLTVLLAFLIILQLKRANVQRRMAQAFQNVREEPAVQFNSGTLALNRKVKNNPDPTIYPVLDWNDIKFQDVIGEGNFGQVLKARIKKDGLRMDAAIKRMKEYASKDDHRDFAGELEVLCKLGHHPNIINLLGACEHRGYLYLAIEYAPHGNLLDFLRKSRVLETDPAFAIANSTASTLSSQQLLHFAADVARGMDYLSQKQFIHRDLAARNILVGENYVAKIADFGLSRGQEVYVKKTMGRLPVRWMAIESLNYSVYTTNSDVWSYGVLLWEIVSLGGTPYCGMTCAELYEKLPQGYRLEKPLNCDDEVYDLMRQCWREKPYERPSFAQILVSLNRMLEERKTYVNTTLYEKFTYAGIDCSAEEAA
# Sequence of UniProt P07947 (whole entry, looked up): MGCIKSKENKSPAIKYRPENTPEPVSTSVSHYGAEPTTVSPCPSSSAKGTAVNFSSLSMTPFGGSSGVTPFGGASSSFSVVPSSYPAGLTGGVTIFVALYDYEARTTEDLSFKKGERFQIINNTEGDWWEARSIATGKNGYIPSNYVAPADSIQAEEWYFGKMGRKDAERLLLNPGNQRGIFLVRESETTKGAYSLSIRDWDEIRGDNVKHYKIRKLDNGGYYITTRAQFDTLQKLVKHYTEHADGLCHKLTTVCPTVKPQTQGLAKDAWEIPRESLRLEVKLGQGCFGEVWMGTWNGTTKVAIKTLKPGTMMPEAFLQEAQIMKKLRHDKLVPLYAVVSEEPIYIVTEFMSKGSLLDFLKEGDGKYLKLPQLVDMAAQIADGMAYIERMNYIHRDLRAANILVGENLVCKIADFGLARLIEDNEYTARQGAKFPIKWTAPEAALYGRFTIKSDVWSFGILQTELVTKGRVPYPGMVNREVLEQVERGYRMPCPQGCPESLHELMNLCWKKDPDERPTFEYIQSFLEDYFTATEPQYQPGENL
# Sequence of UniProt O43318 (whole entry, looked up): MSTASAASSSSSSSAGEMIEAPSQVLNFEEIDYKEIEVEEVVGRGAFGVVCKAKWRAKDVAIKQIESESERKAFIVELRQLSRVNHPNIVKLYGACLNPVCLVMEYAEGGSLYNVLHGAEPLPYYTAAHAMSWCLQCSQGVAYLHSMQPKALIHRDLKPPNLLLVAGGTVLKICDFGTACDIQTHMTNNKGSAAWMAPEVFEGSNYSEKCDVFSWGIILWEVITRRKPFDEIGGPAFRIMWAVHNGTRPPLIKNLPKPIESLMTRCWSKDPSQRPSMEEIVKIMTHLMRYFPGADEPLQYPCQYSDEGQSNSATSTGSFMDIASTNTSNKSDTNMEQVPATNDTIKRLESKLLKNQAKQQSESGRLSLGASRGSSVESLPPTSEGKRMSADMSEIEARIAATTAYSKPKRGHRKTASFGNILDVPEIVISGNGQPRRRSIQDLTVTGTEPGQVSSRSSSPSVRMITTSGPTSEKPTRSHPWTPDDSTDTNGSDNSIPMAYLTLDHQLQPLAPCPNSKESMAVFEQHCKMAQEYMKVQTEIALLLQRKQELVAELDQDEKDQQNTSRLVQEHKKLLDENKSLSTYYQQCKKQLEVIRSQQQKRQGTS

# Sample 1 — observed: cell-free assay; technique: competition with immobilised ligand; concentration: 1 µM
# Compound: CO[C@@H](C)c1c(Nc2ccc([C@@H](N(C)C(=O)C3CCS(=O)(=O)CC3)C(F)(F)F)cc2)cnc2cc(Cl)nn12
target,remaining binding [%]
"Rhodopsin kinase GRK1 (GRK1, Homo sapiens, UniProt Q15835)",86
"Mitogen-activated protein kinase kinase kinase 7 (MAP3K7, Homo sapiens, UniProt O43318)",84
"Activin receptor type-1-like (ACVRL1, Homo sapiens, UniProt P37023)",100
"Tyrosine-protein kinase Yes (YES1, Homo sapiens, UniProt P07947)",100
"Angiopoietin-1 receptor (TEK, Homo sapiens, UniProt Q02763)",90
"Tyrosine-protein kinase ABL1, phosphorylated (ABL1, Homo sapiens, UniProt P00519, T315I)",78

# Sample 2 — technique: LC-MS/MS; host: human; medium: plasma; route: oral
# Compound: COc1ccc(-c2c(Nc3ccccn3)[nH]c3c(C4=CCCCC4)c(-c4ccccc4)nn3c2=O)cc1
dose,Tlast
200 mg once daily,24 h
400 mg once daily,24 h
150 mg once daily,24 h

# Sample 3 — observed: enzyme activity; mode: inhibitor; concentration: 0.5 µM; reference: control
# Target: Megakaryocyte-associated tyrosine-protein kinase (MATK, Homo sapiens, UniProt P42679)
# Target sequence (P42679 1-507): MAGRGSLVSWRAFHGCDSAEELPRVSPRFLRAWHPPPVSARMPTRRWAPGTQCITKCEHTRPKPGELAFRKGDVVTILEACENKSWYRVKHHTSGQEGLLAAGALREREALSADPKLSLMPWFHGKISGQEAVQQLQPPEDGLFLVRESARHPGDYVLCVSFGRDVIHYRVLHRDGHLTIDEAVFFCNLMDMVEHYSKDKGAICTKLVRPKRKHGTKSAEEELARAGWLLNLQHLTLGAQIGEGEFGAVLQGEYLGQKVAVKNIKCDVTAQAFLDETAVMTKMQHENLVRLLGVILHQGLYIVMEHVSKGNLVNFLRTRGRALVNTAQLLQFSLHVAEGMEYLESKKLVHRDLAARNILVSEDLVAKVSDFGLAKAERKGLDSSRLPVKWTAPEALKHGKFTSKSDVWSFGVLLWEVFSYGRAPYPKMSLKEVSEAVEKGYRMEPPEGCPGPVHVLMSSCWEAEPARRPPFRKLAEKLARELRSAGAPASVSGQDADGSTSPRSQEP
Compound,remaining activity [%]
Cn1sc(=O)n(Cc2ccccc2)c1=O,95.3
COc1cc2nccc(Oc3ccc(NC(=S)NC(=O)c4ccccc4C)cc3)c2cc1OC,93
COc1ccc(OC)c2c(=S)c3ccccc3[nH]c12,89.5
COc1ccc(C(=O)Nc2sc3c(c2C(N)=O)CCCC3)cc1OC,92.7
Cc1cccc(-c2[nH]c(C(C)(C)C)nc2-c2ccc3c(c2)OCO3)n1,100
O=C1NC(=O)C(c2cn(CCCO)c3ncccc23)=C1c1cnccn1,95.5
CC(C)[C@H](CO)Nc1nc(Nc2cc(N)cc(Cl)c2)c2ncn(C(C)C)c2n1,111
Nc1ncnc2n[nH]c(Nc3ccc(F)cc3)c12,95.6
Nc1[nH]nc2nc3ccccc3nc12,91.9
COc1cc2ncnc(Nc3ccc(F)c(Cl)c3)c2cc1OCCCN1CCOCC1,86.4
Nc1ccc2ncnc(NCCc3ccc(Oc4ccccc4)cc3)c2c1,89.6
CN(C)c1ccc(C=C2C(=O)Nc3ccccc32)cc1,95.3
NCCNc1ncc(C(N)=O)c(Nc2cccc(C(F)(F)F)c2)n1,94.5
O=c1c2ccccc2[nH]c(=S)n1CCN1CCC(=C(c2ccc(F)cc2)c2ccc(F)cc2)CC1,93
O=C(CCCc1ccc(-c2ccccc2F)cc1)Nc1ccc(O)cc1,92.2

# Sample 4 — technique: trypan blue exclusion; time: 48 h; reference: untreated
# SMILES: O=C(NC1CCNCC1)c1n[nH]cc1NC(=O)c1c(Cl)cccc1Cl
cell line,concentration,viability
HuT78,1 µM,36.1%
HH,0.01 µM,100% and 101%
HuT78,0.0001 µM,104%

# Other studies, line by line
SMILES,target or system,assay,system,conditions,how to read,quantity,value
CC(=O)N[C@@H](Cc1c[nH]c2ccccc12)C(=O)N[C@@H](CCC(=O)C=[N+]=[N-])C(=O)OC(C)C,,UPLC-MS/MS,"EL4 tumor, C57BL/6 CES1-/- mice, tumor","subcutaneous, 0.3 mg/kg DON equivalent daily, 5 days",higher = more metabolite,ribose level,3.36e+06 a.u. and 2.64e+06 a.u. and 2.6e+06 a.u. and 3.8e+06 a.u. and 2.81e+06 a.u. and 3.04e+06 a.u.
CN(C(=O)c1ccn2ncc(-c3ccc(C(N)=O)cc3)c2c1)c1ccc(C#N)cn1,Cryptosporidium parvum,qPCR,"IFN-γ knockout mouse, feces","oral, 10 mg/kg",,oocyst shedding,4.03 log oocysts/g feces
CC(C)n1cnc(-c2ccc(F)cc2)c1-c1ncc(C(=O)Nc2ccc(N3CCN(C)CC3)cc2)[nH]1,,,IPF patients,"30 mg once daily, adverse event incidence",,blood pressure increased,0%

# Some of these lines once more (sample 3):
Compound,remaining activity [%]
COc1ccc(C(=O)Nc2sc3c(c2C(N)=O)CCCC3)cc1OC,92.7
Cc1cccc(-c2[nH]c(C(C)(C)C)nc2-c2ccc3c(c2)OCO3)n1,100
O=C1NC(=O)C(c2cn(CCCO)c3ncccc23)=C1c1cnccn1,95.5
